{"data": "Measurements collected from several papers", "note": "Compare with care: the assays were run in different laboratories. “And” joins repeats or separate records; there may be more than shown. ± gives the spread as reported."}
{"SMILES": "CCCC[C@H](NC(=O)CCCCCCCNC(=O)CN1CCN(CC(=O)O)CCN(CC(=O)O)CC1)C(=O)N[C@H]1CC(=O)NCCCC[C@@H](C(N)=O)NC(=O)[C@H](Cc2c[nH]c3ccccc23)NC(=O)[C@H](CCCNC(=N)N)NC(=O)[C@@H](Cc2ccccc2)NC(=O)[C@H](Cc2c[nH]cn2)NC1=O [fluorine-18 labelled]", "test system": "C57 mice B16-F10 melanoma, liver", "conditions": "intravenous, 0.37 MBq, 2 h", "tissue uptake": "2.72 ± 0.12 %ID/g"}
{"SMILES": "N#C[C@@H]1CCCN1C(=O)CNC(=O)c1ccnc2ccc(OCCCN3CCN(C(=O)CCc4ccc5c(c4)CN4CCN(Cc6cc(CCC(=O)O)ccc6O)CC(=O)[O][Al-]([18F])([O]C(=O)C4)[O]5)CC3)cc12 (some centres unmarked)", "test system": "BALB/c nude mice, U-87 MG xenograft, heart", "conditions": "1 h, blocking, added: DOTA-FAPI-04 40 nmol/mouse co-injected", "tissue uptake": "0.47 ± 0.23 %ID/g"}
{"SMILES": "O=C(NCC1OC2CCC=CCCC2O1)c1ccc(COCCOCCOCC[18F])cc1 (centres unmarked)", "test system": "healthy female BALB/c nude mice, muscle", "conditions": "intravenous, 7.4 MBq per mouse, 15 min", "tissue uptake": "2.5 ± 0.2 %ID/g"}
{"SMILES": "CC(C)C[C@H](NC(=O)[C@@H](CCCCNC(=O)[C@@H](Cc1ccccc1)NC(=O)CCCCCCCNC(=O)CN1CCN(CC(=O)O)CCN(CC(=O)O)CCN(CC(=O)O)CC1)NC(=O)[C@H](Cc1ccc(O)cc1)NC(=O)[C@H](CO)NC(=O)[C@H](Cc1c[nH]c2ccccc12)NC(=O)[C@H](Cc1c[nH]cn1)NC(=O)[C@@H]1CCC(=O)N1)C(=O)N[C@@H](CCCNC(=N)N)C(=O)N1CCC[C@H]1C(=O)NCC(N)=O [indium-111 labelled]", "test": "biodistribution", "test system": "male athymic nude mice, DU-145 prostate cancer xenograft, lung", "conditions": "intravenous, 0.037 MBq, 0.5 h post-injection", "tissue uptake": "1.61 ± 0.24 %ID/g"}
{"SMILES": "COc1ccc2c(c1)C(C)(C)C(/C=C/C1=C(Oc3ccc(C(=O)NCCCCOc4cc(CN(Cc5ccccn5)Cc5ccccn5)cc(CN(Cc5ccccn5)Cc5ccccn5)c4)cc3)C(=C/C=C3/N(CCCCS(=O)(=O)[O-])c4ccc(OC)cc4C3(C)C)CCC1)=[N+]2CCCCS(=O)(=O)[O-].O=[N+]([O-])[O-].O=[N+]([O-])[O-].[99Tc+].[C-]#[O+].[C-]#[O+].[C-]#[O+].[Zn+2]", "test system": "BALB/c mice, S. aureus myositis, adipose tissue", "conditions": "12 h post-injection", "tissue uptake": "0.16 %ID/g and 0.59 %ID/g and 0.42 %ID/g and 0.65 %ID/g"}
{"SMILES": "COc1ccc(Nc2nc(Nc3ccc(OCCOCC[18F])cc3)ncc2Br)cc1", "test system": "ICR mice, S180 tumour-bearing, muscle", "conditions": "intravenous, 370 kBq, 15 min", "tissue uptake": "2.25 ± 0.2 %ID/g"}
{"SMILES": "Cc1cc(C)n(CCN(CCN)CCCCCCNC(=O)[C@@H](N)Cc2c[nH]cn2)n1.[99Tc+].[C-]#[O+].[C-]#[O+].[C-]#[O+]", "test system": "BALB/c nude mice, A549 xenograft, pancreas", "conditions": "intravenous, 24 h", "tissue uptake": "0.37 ± 0.06 %IA/g"}
{"SMILES": "O=C(NCC1OC2CCC=CCCC2O1)c1ccc([18F])nc1 (centres unmarked)", "test system": "healthy female BALB/c nude mice, heart", "conditions": "intravenous, 7.4 MBq per mouse, 2 min", "tissue uptake": "4.7 ± 0.7 %ID/g"}
{"SMILES": "CCCC[C@H](NC(=O)COCCOCCNC(=O)CN1CCN(CC(=O)O)CCN(CC(=O)O)CC1)C(=O)N[C@H]1CC(=O)NCCCC[C@@H](C(N)=O)NC(=O)[C@H](Cc2c[nH]c3ccccc23)NC(=O)[C@H](CCCNC(=N)N)NC(=O)[C@@H](Cc2ccccc2)NC(=O)[C@H](Cc2c[nH]cn2)NC1=O [fluorine-18 labelled]", "test system": "C57 mice B16-F10 melanoma, lung", "conditions": "intravenous, 0.37 MBq, 1 h", "tissue uptake": "1.07 ± 0.32 %ID/g"}
{"SMILES": "O=C([O-])CN1CCN(CC(=O)[O-])CCN(CC(=O)NC[C@H]2CC[C@H](C(=O)N[C@H](Cc3cnc4ccccc4c3)C(=O)NCCCC[C@H](NC(=O)N[C@@H](CCC(=O)O)C(=O)O)C(=O)O)CC2)CCN(CC(=O)[O-])CC1.[64Cu+2]", "test": "ex vivo gamma counting", "test system": "22Rv1 tumour-bearing mice, lung", "conditions": "intravenous, 0.74 MBq, 24 h post-injection", "tissue uptake": "15.2 %ID/g"}
{"SMILES": "COc1ccc(Nc2nc(Nc3ccc(OCCOCCOCC[18F])cc3)ncc2Br)cc1", "test system": "ICR mice, S180 tumour, intestine", "conditions": "intravenous, 370 kBq, 15 min", "tissue uptake": "2.24 ± 0.12 %ID"}
